Measured values gathered from unrelated publications.
Protocols differ between the studies behind these lines. Numbers after ± are the reported error.
Technique: steady-state kinetics
B1: sacB (Priestia megaterium, UniProt D5DC07); chain KGNDSKDFNNSYGISHITRDNMVKIPQQQNSDQFKVPAFDESTIKNIASAKGKNASGNTIDLDVWDSWPLQNADGTVATYHGYQIVFALAGDPKDSNDTSVYLFYKKAGDKSIDSWKNAGRVFKDSDKFVPNDPHLKNQTQEWSGSGTLTKDGKVRLFYTDYSGKQYGKQTLTTAQVNMSQPNDNTLKVDGVEDYKSIFDGDGKIYQTVQQFIDEGGYDTGDNHTLRDPHYIEDNGHKYLVFEANTGTEDGYQGEDSLYNRAYYGGNNPFFQSEKKKLLEGSNKEKASLANGALGIIELNDDYTLKKVMKPLITSNTVTDEIERANIFKKDGKWYLFTDSRGSKMTIDGIGQDDVYMLGYVSNTLTGKYKPLNDTGLVLHMDLDPNDKTFTYSHFAVPQTKGDNVVITSYMTNRGFYEDNHSTFAPSFLVNIDGSKTSVVKDRVLEQGQLTVDED
B2: protein Y93S (Thermus thermophilus, UniProt Q5SKR5); chain MSAPKPFVIGIAGGTASGKTTLAQALARTLGERVALLPMDHYYKDLGHLPLEERLRVNYDHPDAFDLALYLEHAQALLRGLPVEMPVYDFRASTRSPRRTPVRPAPVVILEGILVLYPKELRDLMDLKVFVDADADERFIRRLKRDVLERGRSLEGVVAQYLEQVKPMHLHFVEPTKRYADVIVPRGGQNPVALEMLAAKALARLARMGAA
B3: protein (Sulfurisphaera tokodaii, UniProt Q96XE7); chain MIILAFDIFGTVLDTSTVIQEFRNKQLEYTWLLTIMGKYVEFEEITKITLRYILKVRGEESKFDEELNKWKNLKAYEDTKYLKEISEIAEVYALSNGSINEVKQHLERNGLLRYFKGIFSAESVKEYKPSPKVYKYFLDSIGAKEAFLVSSNAFDVIGAKNAGMRSIFVNRKNTIVDPIGGKPDVIVNDFKELYEWILRYK
B4: onr (Enterobacter cloacae, UniProt P71278); chain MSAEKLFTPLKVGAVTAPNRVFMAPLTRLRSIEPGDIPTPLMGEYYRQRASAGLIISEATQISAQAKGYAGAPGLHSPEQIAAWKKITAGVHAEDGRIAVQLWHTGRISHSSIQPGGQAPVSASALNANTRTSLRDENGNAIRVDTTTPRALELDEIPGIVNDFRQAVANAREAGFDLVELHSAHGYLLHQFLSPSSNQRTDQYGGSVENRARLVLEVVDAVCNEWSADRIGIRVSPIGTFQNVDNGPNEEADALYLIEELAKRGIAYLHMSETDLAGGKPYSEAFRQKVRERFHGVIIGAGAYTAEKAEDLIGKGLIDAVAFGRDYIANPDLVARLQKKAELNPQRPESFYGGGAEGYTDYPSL
B5: Pck1 A467G (Rattus norvegicus, UniProt P07379); chain MPPQLHNGLDFSAKVIQGSLDSLPQEVRKFVEGNAQLCQPEYIHICDGSEEEYGRLLAHMQEEGVIRKLKKYDNCWLALTDPRDVARIESKTVIITQEQRDTVPIPKSGQSQLGRWMSEEDFEKAFNARFPGCMKGRTMYVIPFSMGPLGSPLAKIGIELTDSPYVVASMRIMTRMGTSVLEALGDGEFIKCLHSVGCPLPLKKPLVNNWACNPELTLIAHLPDRREIISFGSGYGGNSLLGKKCFALRIASRLAKEEGWLAEHMLILGITNPEGKKKYLAAAFPSACGKTNLAMMNPTLPGWKVECVGDDIAWMKFDAQGNLRAINPENGFFGVAPGTSVKTNPNAIKTIQKNTIFTNVAETSDGGVYWEGIDEPLAPGVTITSWKNKEWRPQDEEPCAHPNSRFCTPASQCPIIDPAWESPEGVPIEGIIFGGRRPAGVPLVYEALSWQHGVFVGAAMRSEATAGAEHKGKVIMHDPFAMRPFFGYNFGKYLAHWLSMAHRPAAKLPKIFHVNWFRKDKNGKFLWPGFGENSRVLEWMFGRIEGEDSAKLTPIGYVPKEDALNLKGLGDVNVEELFGISKEFWEKEVEEIDKYLEDQVNADLPYEIERELRALKQRISQM
B6: POLK W214Y/W392H/Y50W (Homo sapiens, UniProt Q9UBT6); chain MGLNDNKAGMEGLDKEKINKIIMEATKGSRFWGNELKKEKQVNQRIENMMQQKAQITSQQLRKAQLQVDRFAMELEQSRNLSNTIVHIDMDAFYAAVEMRDNPELKDKPIAVGSMSMLSTSNYHARRFGVRAAMPGFIAKRLCPQLIIVPPNFDKYRAVSKEVKEILADYDPNFMAMSLDEAYLNITKHLEERQNYPEDKRRYFIKMGSSVENDNPGKEVNKLSEHERSISPLLFEESPSDVQPPGDPFQVNFEEQNNPQILQNSVVFGTSAQEVVKEIRFRIEQKTTLTASAGIAPNTMLAKVCSDKNKPNGQYQILPNRQAVMDFIKDLPIRKVSGIGKVTEKMLKALGIITCTELYQQRALLSLLFSETSHHYFLHISLGLGSTHLTRDGERKSMSVERTFSEINKAEEQYSLCQELCSELAQDLQKERLKGRTVTIKLKNVNFEVKTRASTVSSVVSTAEEIFAIAKELLKTEIDADFPHPLRLRLMGVRISSFPNEEDRKHQQ
B7: putA E1012A (Rhodobacter capsulatus, UniProt D5AN87); chain MTDLSALGPKAKFAPEAEVLQALVAQAALPQPQLDRIAARGADLVARIRAEAKPSLMEHFLAQYGLSTREGVALMCLAEAMLRVPDTATIDALIEDKIAPSDWGKHLGTAASSLVNASTWALMLTGKVLDDGAGGIAGTLRGAMRRLGEPVIRAAVGQAMREMGRQFVLGETIEKALERAEKREAEGYTFSYDMLGEAALTAADAERYRLAYAQAITAIGKAATRGSIAANPGISIKLSALHPRYEVAQEARVMAELVPVVRDLARAAARAGIALHIDAEEQDRLALSLRVMAAVIADPETAGWEGFGAVVQAYGKRAGAAIDALAAMARAAGRRINIRLVKGAYWDAEMKRAQVEGHPGFPLFTSKTGTDVAYICLAAKLFGLNDCIYPQFATHNAHTVAAVLEMAAGRPFEFQRLHGMGARLHDIVLRETGGRCRIYAPVGAHRDLLAYLVRRLLENGANSSFVNQIVNESVPPAEVAACPFAALPTARAPRGLLAPADLFGAGRVNAQGFDLSDPEVLARIEAARDVTLPDAAPIVAGPVSGTLRPVRNPATGAVVAQVTEADAATVALALDAAQVWSAPAATRAAVLCRAADLYEENFGPIFAALAQEAGKTLGDAVSELREAVDFLRYYAAEGAADTRPPRGAVVAISPWNFPLAIFTGQVAAALMAGNAVLAKPAEQTPIIAALAVRLLHQAGVPETALQLLPGDGPTVGAALTRDPRVAGVVFTGSTETAQIIARAMAAHLAPGTPLIAETGGLNAMVVDSTALPEQAVRDVVASAFRSAGQRCSALRCLYVQDDIAPHLIGMLKGAMEELVSGDPARLSTDVGPVIDAEAKAGIETYLAANKARILHRSTAPEGGHFVAPALLQVGGIADLEREIFGPVLHLATFAAEDLPAVIAAINARGYGLTFGLHSRIDARVETVAETIRAGNIYVNRNQIGAVVGSQPFGGEGLSGTGPKAGGPLYLNRFYAPEPVVAVGGWTEAATPILPEARETQLDEIFLPGPTGALNRLTRHQRGPILCLGPGAEAASAQAAAVVALGGQAVQASGAVSPKALETLTPLAGVLWWGAAEMGRAYAQALAVRPGPLVPLITAKPDLAHVAHERHLCVDTTAAGGNAALLAG
B8: Ma-WS/DGAT A144F (Marinobacter nauticus); chain MTPLNPTDQLFLWLEKRQQPMHVGGLQLFSFPEGAPDDYVAQLADQLRQKTEVTAPFNQRLSYRLGQPVWVEDEHLDLEHHFRFEALPTPGRIRELLSFVSAEHSHLMDRERPMWEVHLIEGLKDRQFALYTKVHHSLVDGVSFMRMATRMLSENPDEHGMPPIWDLPCLSRDRGESDGHSLWRSVTHLLGLSGRQLGTIPTVAKELLKTINQARKDPAYDSIFHAPRCMLNQKITGSRRFAAQSWCLKRIRAVCEAYGTTVNDVVTAMCAAALRTYLMNQDALPEKPLVAFVPVSLRRDDSSGGNQVGVILASLHTDVQEAGERLLKIHHGMEEAKQRYRHMSPEEIVNYTALTLAPAAFHLLTGLAPKWQTFNVVISNVPGPSRPLYWNGAKLEGMYPVSIDMDRLALNMTLTSYNDQVEFGLIGCRRTLPSLQRMLDYLEQGLAELELNAGL
B9: enzyme P89Y (Thermobifida fusca, UniProt Q47RA9); chain MIMIMASKSSPHDLPDVSGLSIAVLGGTGDQGRGLARRFAMAGHEVILGSRSAERAQAVAAELGEGLPVRGMDNAGAAEAGDVVIVAVYWDGHRALLESLKDVLAGKIVVDCVNPLGFDKRGAYALPVEEGSAAEQAAAILPDSRVVAAFHHVSAVLLLDPEVEKVDLDVLVLGDDREATDVVRALAARIPGVRGVYGGRLRNAHQVEAFTANLISINRRYKAHAGIRITDI
B10: PRXC1A (Armoracia rusticana, UniProt P00433); chain QLTPTFYDNSCPNVSNIVRDTIVNELRSDPRIAASILRLHFHDCFVNGCDASILLDNTTSFRTEKDAFGNANSARGFPVIDRMKAAVESACPRTVSCADLLTIAAQQSVTLAGGPSWRVPLGRRDSLQAFLDLANANLPAPFFTLPQLKDSFRNVGLNRSSDLVALSGGHTFGKNQCRFIMDRLYNFSNTGLPDPTLNTTYLQTLRGLCPLNGNLSALVDFDLRTPTIFDNKYYVNLEEQKGLIQSDQELFSSPNATDTIPLVRSFANSTQTFFNAFVEAMDRMGNITPLTGTQGQIRLNCRVVNSNS
Sequence of UniProt P19337 (whole entry, looked up): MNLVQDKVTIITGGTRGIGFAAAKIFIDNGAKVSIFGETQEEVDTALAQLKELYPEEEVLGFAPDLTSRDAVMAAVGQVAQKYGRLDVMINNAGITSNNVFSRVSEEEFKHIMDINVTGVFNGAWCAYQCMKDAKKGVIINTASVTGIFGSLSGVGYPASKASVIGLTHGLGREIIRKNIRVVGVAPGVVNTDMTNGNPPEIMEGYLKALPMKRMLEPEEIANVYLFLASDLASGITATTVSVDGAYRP
Sequence of UniProt Q8QZR1 (whole entry, looked up): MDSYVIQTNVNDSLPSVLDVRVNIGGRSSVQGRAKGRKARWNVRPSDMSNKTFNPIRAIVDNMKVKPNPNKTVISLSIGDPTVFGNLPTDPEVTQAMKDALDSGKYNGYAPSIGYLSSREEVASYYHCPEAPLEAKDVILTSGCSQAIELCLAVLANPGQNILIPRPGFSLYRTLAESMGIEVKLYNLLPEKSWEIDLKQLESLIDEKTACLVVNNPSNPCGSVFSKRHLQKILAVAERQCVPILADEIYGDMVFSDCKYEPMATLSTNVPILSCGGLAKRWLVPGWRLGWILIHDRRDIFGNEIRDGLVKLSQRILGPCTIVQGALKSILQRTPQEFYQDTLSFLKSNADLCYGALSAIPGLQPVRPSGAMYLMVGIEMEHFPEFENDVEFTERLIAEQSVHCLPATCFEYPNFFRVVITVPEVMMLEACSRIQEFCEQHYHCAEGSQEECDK

For `B1 (sacB)`, the kcat/Km was 11700 M⁻¹ s⁻¹ (OC[C@H]1O[C@@](CO)(O[C@H]2O[C@H](CO)[C@@H](O)[C@H](O)[C@H]2O)[C@@H](O)[C@@H]1O; pH 6.9).
For `alanine aminopeptidase (Neisseria meningitidis, UniProt Q9JYV4)`, the kcat/Km was 31000 ± 1000 M⁻¹ s⁻¹ (NC(=O)Cc1cc(=O)oc2cc(NC(=O)[C@@H](N)CC3CCCCC3)ccc12; pH 7.5, 37 °C).
`protein (Sinorhizobium meliloti, UniProt Q92T34)` has a kcat/Km of 371000 ± 59000 M⁻¹ s⁻¹ (NC(=O)C1=CN([C@@H]2O[C@H](COP(=O)(O)OP(=O)(O)OC[C@H]3O[C@@H](n4cnc5c(N)ncnc54)[C@H](OP(=O)(O)O)[C@@H]3O)[C@@H](O)[C@H]2O)C=CC1; pH 7.5, 25 °C, NaCl 150 mM, cofactor varied, added: hydroxypyruvate 66.7 mM).
For `BaiA2 (Clostridium scindens, UniProt P19337)`, the kcat/Km was 93600 M⁻¹ s⁻¹ (C[C@H](CCC(=O)SCCNC(=O)CCNC(=O)[C@H](O)C(C)(C)COP(=O)(O)OP(=O)(O)OC[C@H]1O[C@@H](n2cnc3c(N)ncnc32)[C@H](O)[C@@H]1OP(=O)(O)O)[C@H]1CC[C@H]2[C@@H]3CC[C@@H]4CC(=O)CC[C@]4(C)[C@H]3CC[C@]12C; pH 8.7, 37 °C, added: NADH).
`B2 (protein Y93S)` has a kcat/Km of 32000 M⁻¹ s⁻¹ (Nc1ccn([C@@H]2O[C@H](CO)[C@@H](O)[C@H]2O)c(=O)n1; pH 7.2, 25 °C, KCl 100 mM, added: ATP 100–200 µM).
`B3 (protein)` gave a kcat/Km of 1.7 ± 0.228 M⁻¹ s⁻¹ (C[C@H](Cl)C(=O)O; pH 9.5, 70 °C).
`B4 (onr)` gave a kcat/Km of 9000 M⁻¹ s⁻¹ (CC(C)=CCC/C(C)=C/C=O; pH 7, 25 °C, apparent, anaerobic, added: NADPH 100 µM).
For `B5 (Pck1 A467G)`, the kcat/Km was 270000 M⁻¹ s⁻¹ (Nc1nc2c(ncn2[C@@H]2O[C@H](COP(=O)(O)OP(=O)(O)OP(=O)(O)O)[C@@H](O)[C@H]2O)c(=O)[nH]1; pH 7.5, 25 °C).
`B6 (POLK W214Y/W392H/Y50W)` gave a kcat/Km of 37000 M⁻¹ s⁻¹ (Nc1ccn([C@H]2C[C@H](O)[C@@H](COP(=O)(O)OP(=O)(O)OP(=O)(O)O)O2)c(=O)n1; pH 7.5, 23 °C, MgCl2 5 mM, added: G template).
`B7 (putA E1012A)` gave a kcat/Km of 1300 ± 270 M⁻¹ s⁻¹ (O=C(O)[C@@H]1CCCN1; pH 8, 23 °C).
For `B8 (Ma-WS/DGAT A144F)`, the kcat/Km was 5130 ± 264 M⁻¹ s⁻¹ (CCCCCC(=O)SCCNC(=O)CCNC(=O)[C@H](O)C(C)(C)COP(=O)(O)OP(=O)(O)OC[C@H]1O[C@@H](n2cnc3c(N)ncnc32)[C@H](O)[C@@H]1OP(=O)(O)O; pH 7.5, 25 °C, NaCl 300 mM, apparent, added: 1-hexanol 4 mM).
For `B9 (enzyme P89Y)`, the kcat/Km was 0.34 ± 0.11 M⁻¹ s⁻¹ (NC(=O)c1ccc[n+](CCCO)c1; pH 8, 25 °C).
The kcat/Km of `B10 (PRXC1A)` is reported as 1.44e+06 M⁻¹ s⁻¹ (CCn1c(=NN=c2sc3cc(S(=O)(=O)O)ccc3n2CC)sc2cc(S(=O)(=O)O)ccc21; apparent).
With `Tat (Mus musculus, UniProt Q8QZR1)` the kcat/Km was 2000 M⁻¹ s⁻¹ (N[C@@H](CCC(=O)O)C(=O)O; pH 7, 38 °C, added: PLP).

A few entries again:
`B2 (protein Y93S)` has a kcat/Km of 32000 M⁻¹ s⁻¹ (Nc1ccn([C@@H]2O[C@H](CO)[C@@H](O)[C@H]2O)c(=O)n1; pH 7.2, 25 °C, KCl 100 mM, added: ATP 100–200 µM).
For `alanine aminopeptidase (Neisseria meningitidis, UniProt Q9JYV4)`, the kcat/Km was 31000 ± 1000 M⁻¹ s⁻¹ (NC(=O)Cc1cc(=O)oc2cc(NC(=O)[C@@H](N)CC3CCCCC3)ccc12; pH 7.5, 37 °C).
